Values quoted from earlier work as cited in several papers.
Compare with care: the assays were run in different laboratories. Numbers after ± are the reported error.
Sequence of UniProt Q14289 (whole entry, looked up): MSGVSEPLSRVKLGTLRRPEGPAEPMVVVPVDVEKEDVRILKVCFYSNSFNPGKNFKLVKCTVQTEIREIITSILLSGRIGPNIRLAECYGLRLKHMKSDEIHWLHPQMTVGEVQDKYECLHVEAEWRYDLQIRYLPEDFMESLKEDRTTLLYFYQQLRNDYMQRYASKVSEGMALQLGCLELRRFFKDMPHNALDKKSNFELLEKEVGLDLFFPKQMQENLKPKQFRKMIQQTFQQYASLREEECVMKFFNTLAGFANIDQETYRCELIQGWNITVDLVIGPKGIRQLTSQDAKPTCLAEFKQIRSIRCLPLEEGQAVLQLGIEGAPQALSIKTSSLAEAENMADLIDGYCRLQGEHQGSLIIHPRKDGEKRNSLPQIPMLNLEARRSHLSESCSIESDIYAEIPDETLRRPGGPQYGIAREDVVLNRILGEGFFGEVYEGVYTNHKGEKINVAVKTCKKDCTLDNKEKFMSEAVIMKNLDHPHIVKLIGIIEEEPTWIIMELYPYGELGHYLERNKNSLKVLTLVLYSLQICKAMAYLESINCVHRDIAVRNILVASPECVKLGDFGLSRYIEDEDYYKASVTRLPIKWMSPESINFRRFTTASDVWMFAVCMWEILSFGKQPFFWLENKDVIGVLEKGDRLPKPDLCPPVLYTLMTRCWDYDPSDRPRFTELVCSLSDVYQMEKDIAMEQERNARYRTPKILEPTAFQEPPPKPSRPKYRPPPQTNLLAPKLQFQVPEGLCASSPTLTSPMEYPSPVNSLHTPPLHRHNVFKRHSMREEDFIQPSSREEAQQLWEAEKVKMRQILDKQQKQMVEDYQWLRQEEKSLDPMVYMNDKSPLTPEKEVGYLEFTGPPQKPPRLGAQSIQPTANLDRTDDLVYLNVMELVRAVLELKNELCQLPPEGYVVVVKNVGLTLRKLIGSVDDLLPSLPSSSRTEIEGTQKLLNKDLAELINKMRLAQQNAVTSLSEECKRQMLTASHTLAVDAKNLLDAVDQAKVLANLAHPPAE

COc1c2occc2cc2ccc(=O)oc12 — Cmax (human, plasma; concentration not given): 1500 nM
CNCc1cc(-c2ccccc2F)n(S(=O)(=O)c2cccnc2)c1 — Cmax (human, plasma; 40 mg single dose, observed clinical data): 57.6 ng/mL
O=C(c1cccnc1-c1ccncc1)N1CCC(O)(Cc2ccccc2)CC1 — Cmax (human, plasma; 300 mg single dose, added: mefenamic acid): 1520 ng/mL
C=CC(=O)N1CCC([C@@H]2CCNc3c(C(N)=O)c(-c4ccc(Oc5ccccc5)cc4)nn32)CC1 — Cmax (human patients, plasma; oral, 160 mg twice daily, day 1): 376 ± 192 ng/mL
COc1ccccc1Oc1c(NS(=O)(=O)c2ccc(C(C)(C)C)cc2)nc(-c2ncccn2)nc1OCCO — Cmax (human; 62.5 mg, 56 days): 2050 nM
OC(Cn1cncn1)(Cn1cncn1)c1ccc(F)cc1F — Cmax (human; oral, 400 mg single dose): 7790 ng/mL
CC(C)c1noc(N2CCC(COc3ccc(-c4ccc(S(C)(=O)=O)cc4)nc3)CC2)n1 — Cmax (human; dose not given): 2000 nM
Cn1c(=O)c2c(ncn2C)n(C)c1=O — Cmax (human, plasma; oral, 100 mg, single dose with coffee): 1340 ng/mL
COCCc1ccc(OCC(O)CNC(C)C)cc1 (stereo not shown) — Cmax (human; 400 mg single dose, fasted): 94 ng/mL
COc1cc(N2CCC(N3CCN(C)CC3)CC2)ccc1Nc1ncc(Cl)c(Nc2ccccc2P(C)(C)=O)n1 — Cmax (human, plasma; dose not given): 2900 nM
O=C1[C@H](CC[C@H](O)c2ccc(F)cc2)[C@@H](c2ccc(O)cc2)N1c1ccc(F)cc1 — Cmax (human; dose not given): 12 ng/mL
Nc1cc(C(F)(F)F)c(-c2nc(N3CCOCC3)nc(N3CCOCC3)n2)cn1 — remaining activity (PTK2B (Homo sapiens, UniProt Q14289); enzyme activity; 10 µM; baseline: untreated): 100%
CC(C)(C)NC(=O)[C@H]1CC[C@H]2[C@@H]3CC[C@H]4NC(=O)C=C[C@]4(C)[C@H]3CC[C@]12C — Cmax (human, plasma; concentration not given): 220 nM
CN1CCN(c2ccc(C(=O)Nc3n[nH]c4ccc(Cc5cc(F)cc(F)c5)cc34)c(NC3CCOCC3)c2)CC1 — Cmax (human, plasma; dose not given): 2700 nM
CO[C@@H](C)Cn1c(=O)n(C)c2cnc3ccc(-c4cncc(C(C)(C)O)c4)cc3c21 — Cmax (human; 325 mg once daily, steady state, day 15): 1450 ng/mL
CC(=O)Oc1cccc2c1C(=O)c1c(OC(C)=O)cc(C(=O)O)cc1C2=O — Cmax (human, plasma; concentration not given): 13000 nM
CC#CC(=O)N1CCC[C@H]1c1nc(-c2ccc(C(=O)Nc3ccccn3)cc2)c2c(N)nccn12 — Cmax (human; 100 mg twice daily): 827 ng/mL
CC(=O)O[C@@]12CO[C@@H]1C[C@H](O)[C@@]1(C)C(=O)[C@H](O)C3=C(C)[C@@H](OC(=O)[C@H](O)[C@@H](NC(=O)OC(C)(C)C)c4ccccc4)C[C@@](O)([C@@H](OC(=O)c4ccccc4)[C@H]21)C3(C)C — Cmax (human, plasma; concentration not given): 3700 nM
FC(F)(F)c1ccc(CNc2ccc(Cc3c[nH]c4ncc(Cl)cc34)cn2)cn1 — Cmax (human; 1000 mg/day, day 15): 8820 ng/mL
CCCCN1C[C@H](O)[C@@H](O)[C@H](O)[C@H]1CO — Cmax (human, plasma; concentration not given, total plasma concentration): 6100 nM
O=c1ccc2ccc(OCCCCN3CCN(c4cccc5sccc45)CC3)cc2[nH]1 — Cmax (human; dose not given): 160 nM
C=CC(=O)Nc1cc(Nc2nccc(-c3cn(C)c4ccccc34)n2)c(OCC(F)(F)F)nc1N(C)CCN(C)C — Cmax (healthy human; 80 mg, single dose): 29.6 ng/mL
COCCCC/C(=N\OCCN)c1ccc(C(F)(F)F)cc1 — Cmax (human; oral, 25 mg single dose): 7.09 ng/mL
CCCCc1oc2ccc(NS(C)(=O)=O)cc2c1C(=O)c1ccc(OCCCN(CCCC)CCCC)cc1 — Cmax (human, plasma; 800 mg single dose): 290 nM
NC(=O)c1cn(Cc2c(F)cccc2F)nn1 — Cmax (human, plasma total; 800 mg): 25900 nM
COc1cccc2c1C(=O)c1c(O)c3c(c(O)c1C2=O)C[C@@](O)(C(=O)CO)C[C@@H]3O[C@H]1C[C@H](N)[C@H](O)[C@H](C)O1 — Cmax (human, plasma; intravenous infusion, 30 mg/m^2, 4 h infusion): 320 ± 63 nM
COc1ccc2[nH]c([S+]([O-])Cc3ncc(C)c(OC)c3C)nc2c1 (stereo not shown) — Cmax (human post-RYGB patients; oral tablet, 20 mg once daily, day 6, 1 months after surgery): 462 ng/mL
OCc1cc(C(O)CNCCCCCCOCCCCc2ccccc2)ccc1O (stereo not shown) — Cmax (human, plasma; inhaled, dose not given): 1.7 nM
CCN1CCN(Cc2ccc(Nc3ncc(F)c(-c4cc(F)c5nc(C)n(C(C)C)c5c4)n3)nc2)CC1 — Cmax (human; 150 mg single dose, tablet): 167 ng/mL
C#C[C@]1(O)CC[C@H]2[C@@H]3CCC4=CC(=NO)CC[C@@H]4[C@H]3CC[C@@]21CC (mixture of isomers) — Cmax (human fasted; 0.25 mg, after 7 days, added: norgestimate): 2.66 ng/mL
COc1cc2c(Oc3ccc4[nH]c(C)cc4c3F)ccnc2cc1OCC1(N)CC1 — Cmax (human; 10 mg/day, two cycles): 65.2 ± 28.9 ng/mL
CNC(=O)c1cc(Oc2ccc(NC(=O)Nc3ccc(Cl)c(C(F)(F)F)c3)cc2)ccn1 — Cmax (human, plasma; concentration not given): 6200 nM
Cc1ccc([C@@H]2O[C@H](CO)[C@@H](O)[C@H](O)[C@H]2O)cc1Cc1ccc(-c2ccc(F)cc2)s1 — Cmax (human, preserved kidney function; 300 mg, steady state, mean): 3380 ng/mL
C[C@@H](Oc1ccc(S(C)(=O)=O)cc1C(=O)N1C[C@@H]2C[C@]2(c2cc(C(F)(F)F)on2)C1)C(F)(F)F — Cmax (human; oral, 5 mg, solution, fasted, single dose): 89 nM
O=C(c1cc(Cc2n[nH]c(=O)c3ccccc23)ccc1F)N1CCN(C(=O)C2CC2)CC1 — Cmax (human; oral tablet, 200 mg twice daily, multiple dose): 7670 ng/mL
Cc1cc(C)c(CNC(=O)c2cc(Cl)c3c(c2C)O[C@@](C)([C@H]2CC[C@H](N(C)C)CC2)O3)c(=O)[nH]1 — Cmax (human; oral, 200 mg single dose, geometric mean): 1360 ng/mL
CC(C)OC(=O)[C@H](C)N[P@](=O)(OC[C@H]1O[C@@H](n2ccc(=O)[nH]c2=O)[C@](C)(F)[C@@H]1O)Oc1ccccc1 — Cmax (human, plasma total; 400 mg): 1140 nM
Cc1nsc(-c2nnc3n2CCN(C(=O)c2ccc(F)cc2)[C@@H]3C)n1 — Cmax (human; oral, 20 mg, day 21, fed): 185 ng/mL
CCCCCOC(=O)Nc1nc(=O)n([C@@H]2O[C@H](C)[C@@H](O)[C@H]2O)cc1F — Cmax (human, plasma; concentration not given): 9700 nM
C[C@H]1CO[C@@H]2Cn3cc(C(=O)NCc4ccc(F)cc4F)c(=O)c(O)c3C(=O)N12 — Cmax (human; oral tablet, two 5 mg tablets, geometric mean fasted): 1130 ng/mL
O=C(O)c1cc(O)c(O)c(O)c1 — Cmax (human; oral, 50 mg): 4000 nM
CC(C)C[C@H](NC(=O)[C@H](Cc1ccccc1)NC(=O)c1cnccn1)B(O)O — Cmax (human, plasma; concentration not given): 1300 nM
CCc1nn(CCO)c(CC)c1Oc1cc(C#N)cc(C#N)c1 — Cmax (human, plasma total; 400 mg): 2960 nM

For quick reference, copied from above:
CCCCc1oc2ccc(NS(C)(=O)=O)cc2c1C(=O)c1ccc(OCCCN(CCCC)CCCC)cc1 — Cmax (human, plasma; 800 mg single dose): 290 nM
CC(C)C[C@H](NC(=O)[C@H](Cc1ccccc1)NC(=O)c1cnccn1)B(O)O — Cmax (human, plasma; concentration not given): 1300 nM
OCc1cc(C(O)CNCCCCCCOCCCCc2ccccc2)ccc1O (stereo not shown) — Cmax (human, plasma; inhaled, dose not given): 1.7 nM
CNC(=O)c1cc(Oc2ccc(NC(=O)Nc3ccc(Cl)c(C(F)(F)F)c3)cc2)ccn1 — Cmax (human, plasma; concentration not given): 6200 nM
COc1ccc2[nH]c([S+]([O-])Cc3ncc(C)c(OC)c3C)nc2c1 (stereo not shown) — Cmax (human post-RYGB patients; oral tablet, 20 mg once daily, day 6, 1 months after surgery): 462 ng/mL
